Published values gathered from unrelated publications.
Numbered parts are unrelated; each lists some results of a single study.

Set 1 — technique: protein binding microarray; form: double-stranded DNA, one strand shown; sample: in vitro; tested at: not given; baseline: not given; direction: higher = stronger binding
Target: Histone acetyltransferase KAT6A, winged helix 1, GST fusion (KAT6A, Homo sapiens, UniProt Q92794, residues 1-85)
Setting: 8-mer, flanks averaged, mean of 2 arrays, mostly near background
Residues (chain): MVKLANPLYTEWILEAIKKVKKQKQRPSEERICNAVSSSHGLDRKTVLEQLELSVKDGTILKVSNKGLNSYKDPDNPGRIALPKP
Strand	E-score
ATAAAGTC	-0.0472
ACATCCCG	0.262
ATCTGCCC	0.034
GCGGACCA	0.236
CGAGCCAG	-0.141
AAAAGTAA	-0.0791
GAATTCAA	-0.199

Set 2 — target: UBE2G1 UBC core domain (UniProt P62253); technique: yeast two-hybrid; sample: yeast; setting: mostly zero background; baseline: not given; direction: higher = stronger interaction
B1: RNF182 RING domain (UniProt Q8N6D2); chain AESQASDELECKICYNRYNLKQRKPKVLECCHRVCAKCLYKIIDFGDSPQGVIVCPFCRFETCLPDDEV
B2: ARIH2 RING domain (UniProt O95376); chain HVPTSHPPHHCAVCMQFVRKENLLSLACQHQFCRSCWEQHCSVLVKDGVGVGVSCMAQDCPLRTPEDFVF
B3: TRIM11 RING domain (UniProt Q96F44); chain LSTNLQEEATCAICLDYFTDPVMTDCGHNFCRECIRRCWGQPEGPYACPECRELSPQRNLRP
Construct (chain): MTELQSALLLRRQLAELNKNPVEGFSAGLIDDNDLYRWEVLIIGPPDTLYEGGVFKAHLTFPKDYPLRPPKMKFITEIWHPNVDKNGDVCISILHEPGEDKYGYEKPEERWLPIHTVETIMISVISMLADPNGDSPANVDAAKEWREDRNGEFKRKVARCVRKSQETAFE
Molecule	lacZ reporter activity
ASPKIFQKTKCSICNSALELPSVHFLCGHSFHQHCFESYSESDADCPTCLPENRKVMDMI (VPS11 RING domain (UniProt Q9H270))	0
B1 (RNF182 RING domain)	0
B2 (ARIH2 RING domain)	0
DDVLTKDAGECVICLEELLQGDTIARLPCLCIYHKSCIDSWFEVNRSCPEHPAD (ZNRF1 RING domain (UniProt Q8ND25))	0
B3 (TRIM11 RING domain)	0

Set 3 — technique: protein-binding microarray; form: double-stranded DNA, one strand shown; sample: in vitro; tested at: 250 nM; setting: 60-bp whole probe; together with: salmon DNA 0.4 mg/ml; baseline: random background probes; direction: higher = stronger binding; constant ends, left off below: GCCTAGCAC … GTCTTGATTCGCTTGACGCTGCTG
Target: Interferon regulatory factor 5, full length, phosphomimetic (IRF5, Homo sapiens, UniProt Q13568-2, residues 1-514, K96S/S451D/S453D/S456D/S462D)
Strand	log fluorescence
TAAGATCTCAGTATCGATTAGTGCTAG	6.92 z-score
GACGGTATCGGATATCGGGACGTGCTA	2.13 z-score
GATGAATAAAGCGTTGCTGCGTGCTAG	-0.225 z-score
TTTGCTTTCCTTTATGTACTGTGCTAG	2.05 z-score
GACGGTATCTTTCTCCTGACGTGCTAG	0.936 z-score
TCAGGACTGGGGTATCGGTTAGTGCTA	2.1 z-score
TAAGGTTTCGGACTGGGTTAGTGCTAG	3.5 z-score
TATGTTCCCTATTTAAGGCTGTGCTAG	0.347 z-score
TGTGCTTTCCTGATGACCCTGTGCTAG	0.214 z-score
GACGGACTCCTTATCCTGACGTGCTAG	-0.67 z-score
TTAGGACCGGGTCTCGGTTAGTGCTAG	0.117 z-score
TTCGGTTTCCTACTGCTTTAGTGCTAG	1.71 z-score
GACGATTCCGGGTATCGAGACGTGCTA	1.09 z-score

Mixed results
Molecule	partner	test	system	conditions	endpoint	result
ALDH18A1 (Homo sapiens, UniProt P54886)	DPYD (Homo sapiens, UniProt Q12882)	cross-linking MS	cell fractions	together with: DSSO	cross-linked residues	K424 to K888

A few entries again (set 2):
Molecule	lacZ reporter activity
B2 (ARIH2 RING domain)	0
DDVLTKDAGECVICLEELLQGDTIARLPCLCIYHKSCIDSWFEVNRSCPEHPAD (ZNRF1 RING domain (UniProt Q8ND25))	0
B3 (TRIM11 RING domain)	0
